Results gathered from unrelated publications.
Protocols differ between the studies behind these lines. ± marks the error that the study gave.
Target: Muscarinic acetylcholine receptor M2 (CHRM2, Homo sapiens, UniProt P08172)
Chain of UniProt P08172 (whole entry, looked up): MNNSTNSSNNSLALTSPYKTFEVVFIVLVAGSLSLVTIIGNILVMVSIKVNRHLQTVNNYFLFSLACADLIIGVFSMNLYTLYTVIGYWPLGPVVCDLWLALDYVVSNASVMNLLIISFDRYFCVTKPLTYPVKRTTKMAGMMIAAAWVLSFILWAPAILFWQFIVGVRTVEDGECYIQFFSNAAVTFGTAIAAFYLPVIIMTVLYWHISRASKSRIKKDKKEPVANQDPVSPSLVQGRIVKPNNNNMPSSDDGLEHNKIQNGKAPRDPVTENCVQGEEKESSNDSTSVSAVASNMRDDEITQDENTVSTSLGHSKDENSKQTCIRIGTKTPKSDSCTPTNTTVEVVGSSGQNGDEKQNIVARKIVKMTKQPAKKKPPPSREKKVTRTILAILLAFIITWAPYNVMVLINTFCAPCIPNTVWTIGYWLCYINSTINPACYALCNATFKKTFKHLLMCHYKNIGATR

Compound	test	system	setting	how to read	endpoint	result
CCCCCCOc1ccc(C(=O)OCCN2CC=CCC2)cc1		membranes	10 µM, 15 h, no carbachol	relative to: control	basal binding	1.4 ± 0.1 fold
C[Si](C)(C)C[C@H](CN)CC(=O)O	ligand displacement, radioligand		250 µM		inhibition	6%
COc1ccc(C(=O)Nc2c(-c3cccs3)nc3ccccn23)cc1	ligand displacement, radioligand		10 µM		inhibition	< 50%
COCC(=O)N1CCc2cc(-c3csc(NC(=O)c4cc(OC)cc(OC)c4)n3)ccc21	ligand displacement, radioligand		10 µM		inhibition	-9%
Cc1[nH]nc2c1N=C(c1ccccc1Cl)c1cnc(N3CCOCC3)cc1N2	cell-free assay		10 µM		inhibition	1%
Cn1ccc2cc(-n3c(=O)[nH]c4sc5c(c4c3=O)CCCC5)ccc21	cell-free assay, radioligand		10 µM		inhibition	0%
C=CCn1c(=O)c2ccccc2n2c(SCC(=O)OC)nnc12	receptor activation, agonist		concentration not given, 16 h		Emax	275 ± 11%
CCCCCCOc1ccc(C(=O)OCC[N+]2(C)CC=CCC2)cc1 (stereo not shown)		membranes	100 µM, 15 h, no carbachol	relative to: control	basal binding	0.88 ± 0.05 fold
COc1ncc2nc(C)n(Cc3ncc(S(N)(=O)=O)cc3F)c2c1-c1ccccc1	antagonist, cell-based		10 µM		inhibition	19.2%
O=C1c2sc(-c3ccc(N4CCC(F)C4)nc3F)nc2CCN1c1cccnc1 (stereo not shown)	ligand displacement, radioligand		1 µM		inhibition	7%
C=CCn1c(=O)c2ccccc2n2c(SCC(=O)Nc3ccc(NC(C)=O)cc3)nnc12	allosteric modulator		added: [3H]NMS		cooperativity factor	5.5 ± 0.1
CC(C)Cn1c(SCC(=O)N2CCc3ccccc3C2)nc2cc(Cl)ccc2c1=O	ligand displacement, radioligand		10 µM		inhibition	23%
CCCCOc1ccc(C(=O)OCCN2CC=CCC2)cc1		membranes	100 µM, 15 h, no carbachol	relative to: control	basal binding	0.71 ± 0.04 fold
C[Si]1(C[C@H](CN)CC(=O)O)CCCC1	ligand displacement, radioligand		70 µM		inhibition	-12%
C=CCn1c(=O)c2ccccc2n2c(SCC(=O)NCc3ccc(NC(C)=O)cc3)nnc12	receptor activation, agonist		concentration not given, 16 h		Emax	222 ± 15%
CCCCOc1ccc(C(=O)OCC[N+]2(C)CC=CCC2)cc1 (stereo not shown)		membranes	10 µM, 15 h, no carbachol	relative to: control	basal binding	1.4 ± 0.07 fold

For quick reference, copied from above:
Compound	test	system	setting	how to read	endpoint	result
COc1ncc2nc(C)n(Cc3ncc(S(N)(=O)=O)cc3F)c2c1-c1ccccc1	antagonist, cell-based		10 µM		inhibition	19.2%
O=C1c2sc(-c3ccc(N4CCC(F)C4)nc3F)nc2CCN1c1cccnc1 (stereo not shown)	ligand displacement, radioligand		1 µM		inhibition	7%
